Experimental data gathered from unrelated publications.
Values joined by “and” are separate records of one study, mostly repeats; a detail may differ. Numbers after ± are the reported error.

| SMILES | test | test system | setting | AUC(0-inf) |
| --- | --- | --- | --- | --- |
| CCN(CC)Cc1cc(Nc2ccnc3cc(Cl)ccc23)ccc1O | – | rat, Wistar, male, plasma | oral, 60 mg/kg, together with: myricetin 5 mg/kg iv | 6420 ± 894 ng·h/mL |
| CCc1cc2c(cc1N1CCC(N3CCOCC3)CC1)C(C)(C)c1[nH]c3cc(C#N)ccc3c1C2=O | – | healthy subjects, matched to moderate impairment, plasma, total | oral, 300 mg single, fed | 1950 ng·h/mL |
| CCOc1cc([C@@H](CS(C)(=O)=O)N2C(=O)c3cccc(NC(C)=O)c3C2=O)ccc1O[C@@H]1O[C@H](C(=O)O)[C@@H](O)[C@H](O)[C@H]1O | – | moderate renal impairment, plasma | oral, 30 mg apremilast single, geometric mean | 7900 ng·h/mL |
| CC(C)=CCC[C@](C)(O[C@@H]1O[C@H](CO)[C@@H](O)[C@H](O)[C@H]1O)[C@H]1CC[C@]2(C)[C@@H]1[C@H](O)C[C@@H]1[C@@]3(C)CC[C@H](O)C(C)(C)[C@@H]3[C@@H](O[C@@H]3O[C@H](CO)[C@@H](O)[C@H](O)[C@H]3O[C@@H]3O[C@@H](C)[C@H](O)[C@@H](O)[C@H]3O)C[C@]12C | – | Sprague Dawley rat, male, plasma | oral, 45 mg/kg, pure ginsenoside mixture in water | 2500 ± 900 ng·h/mL |
| O=C(O)/C=C/c1ccc(O)c(O)c1 | UPLC-MS/MS | Wistar rat, microcirculation dysfunction model, plasma | oral, 100 mg/kg Salvia miltiorrhiza stem-leaf extract FT | 83.6 ± 78.7 ng·h/mL |
| Cn1nnc2c(C(N)=O)ncn2c1=O | microdialysis | male athymic rat, intracranial U87 glioma, tumour extracellular fluid | oral, 50 mg/kg, before cediranib | 1750 ng·h/mL and 1490 ng·h/mL and 1820 ng·h/mL and 1180 ng·h/mL and 320 ng·h/mL and 1480 ng·h/mL and 1110 ng·h/mL |
| C=CC(=O)Nc1cc(Nc2nccc(-c3cn(C)c4ccccc34)n2)c(OC)cc1N(C)CCN(C)C | – | male Sprague-Dawley rat, plasma | oral, 10 mg/kg, PEG200 pretreatment only | 539 ± 144 ng·h/mL |
| CCCC[C@H](NC(C)=O)C(=O)N[C@H]1CCC(=O)NC[C@@H](C(=O)N[C@@H](Cc2c[nH]c3ccccc23)C(N)=O)NC(=O)[C@H](CCCNC(=N)N)NC(=O)[C@@H](Cc2ccccc2)NC(=O)[C@H](Cc2c[nH]cn2)NC1=O | – | CD Sprague Dawley rat, female, plasma | subcutaneous, 5.0 mg/kg daily, day 1 | 4200 ng·h/mL |
| O=C(/C=C/c1ccc(O)c(O)c1)O[C@H](Cc1ccc(O)c(O)c1)C(=O)O | UPLC-MS/MS | Wistar rat, microcirculation dysfunction model, plasma | oral, 100 mg/kg Salvia miltiorrhiza stem-leaf extract FT | 179 ± 127 ng·h/mL |
| CC(C)=CCC[C@](C)(O[C@@H]1O[C@H](CO[C@@H]2O[C@H](CO)[C@@H](O)[C@H](O)[C@H]2O)[C@@H](O)[C@H](O)[C@H]1O)[C@H]1CC[C@]2(C)[C@@H]1[C@H](O)C[C@@H]1[C@@]3(C)CC[C@H](O[C@@H]4O[C@H](CO)[C@@H](O)[C@H](O)[C@H]4O[C@@H]4O[C@H](CO)[C@@H](O)[C@H](O)[C@H]4O)C(C)(C)[C@@H]3CC[C@]12C | – | Sprague Dawley rat, male, plasma | oral, 86 mg/kg, in white ginseng extract | 130000 ± 23500 ng·h/mL |
| O=C(/C=C/c1ccc(O)c(O)c1/C=C/c1ccc(O)c(O)c1)O[C@H](Cc1ccc(O)c(O)c1)C(=O)O | UPLC-MS/MS | Wistar rat, microcirculation dysfunction model, plasma | oral, 100 mg/kg Salvia miltiorrhiza stem-leaf extract FT | 202 ± 149 ng·h/mL |
| CCC[C@@]1(CCc2ccccc2)CC(O)=C([C@H](CC)c2cccc(NS(=O)(=O)c3ccc(C(F)(F)F)cn3)c2)C(=O)O1 | – | Sprague Dawley rat, male, plasma | oral, 5 mg/kg, long-chain triglyceride formulation | 10600 ± 1090 ng·h/mL |
| O=C(O)C[C@H](O)C[C@H](O)/C=C/c1c(C2CC2)nc2ccccc2c1-c1ccc(F)cc1 | – | male Sprague-Dawley rat (wild type), plasma | oral, 5 mg/kg | 2040 ± 368 ng·h/mL |
| COc1ccc(/C=C\c2cc(OC)c(OC)c(OC)c2)cc1OP(=O)(O)O | – | Sprague-Dawley rat, plasma | intravenous, 28 mg/kg | 15200 ± 1050 ng·h/mL |
| O=C(/C=C/c1ccc(O)c2c1[C@H](C(=O)O)[C@@H](c1ccc(O)c(O)c1)O2)O[C@H](Cc1ccc(O)c(O)c1)C(=O)O | UPLC-MS/MS | Wistar rat, microcirculation dysfunction model, plasma | oral, 100 mg/kg Salvia miltiorrhiza stem-leaf extract FT | 188 ± 135 ng·h/mL |
| C=CC(N)CCC(=O)O (centres unmarked) | – | male Sprague-Dawley rat, plasma | oral, 1.0 mg/kg, formulation 5, together with: Sar 200 mg/kg | 1760 ± 70 ng·h/mL |
| CC(C)=CCC[C@](C)(O[C@@H]1O[C@H](CO)[C@@H](O)[C@H](O)[C@H]1O)[C@H]1CC[C@]2(C)[C@@H]1[C@H](O)C[C@@H]1[C@@]3(C)CC[C@H](O)C(C)(C)[C@@H]3[C@@H](O[C@@H]3O[C@H](CO)[C@@H](O)[C@H](O)[C@H]3O)C[C@]12C | – | Sprague Dawley rat, male, plasma | oral, 25 mg/kg, in white ginseng extract | 1800 ± 800 ng·h/mL |
| CC(C)C[C@H]1C(=O)N2CCC[C@H]2[C@]2(O)O[C@](NC(=O)[C@@H]3C=C4c5cccc6[nH]c(Br)c(c56)C[C@H]4N(C)C3)(C(C)C)C(=O)N12 | – | male Sprague-Dawley rats, plasma | intravenous, 0.1 mg/kg, together with: DAL 1.7 mg/kg plus HAL 0.7 mg/kg | 595 ± 83.2 ng·h/mL |
| CNC(=O)c1ccc(-c2cnc3ncc(Cc4ccc5ncccc5c4)n3n2)cc1F | – | moderate hepatic impairment | oral, 200 mg, mean | 5960 ng·h/mL |
| CC(C)=CCC[C@](C)(O[C@@H]1O[C@H](CO)[C@@H](O)[C@H](O)[C@H]1O)[C@H]1CC[C@]2(C)[C@@H]1[C@H](O)C[C@@H]1[C@@]3(C)CC[C@H](O[C@@H]4O[C@H](CO)[C@@H](O)[C@H](O)[C@H]4O[C@@H]4O[C@H](CO)[C@@H](O)[C@H](O)[C@H]4O)C(C)(C)[C@@H]3CC[C@]12C | – | Sprague Dawley rat, male, plasma | oral, 42 mg/kg, in frozen ginseng extract | 26300 ± 7700 ng·h/mL |

For quick reference, copied from above:
| SMILES | test | test system | setting | AUC(0-inf) |
| --- | --- | --- | --- | --- |
| CCc1cc2c(cc1N1CCC(N3CCOCC3)CC1)C(C)(C)c1[nH]c3cc(C#N)ccc3c1C2=O | – | healthy subjects, matched to moderate impairment, plasma, total | oral, 300 mg single, fed | 1950 ng·h/mL |
| CCOc1cc([C@@H](CS(C)(=O)=O)N2C(=O)c3cccc(NC(C)=O)c3C2=O)ccc1O[C@@H]1O[C@H](C(=O)O)[C@@H](O)[C@H](O)[C@H]1O | – | moderate renal impairment, plasma | oral, 30 mg apremilast single, geometric mean | 7900 ng·h/mL |
| CC(C)=CCC[C@](C)(O[C@@H]1O[C@H](CO)[C@@H](O)[C@H](O)[C@H]1O)[C@H]1CC[C@]2(C)[C@@H]1[C@H](O)C[C@@H]1[C@@]3(C)CC[C@H](O)C(C)(C)[C@@H]3[C@@H](O[C@@H]3O[C@H](CO)[C@@H](O)[C@H](O)[C@H]3O[C@@H]3O[C@@H](C)[C@H](O)[C@@H](O)[C@H]3O)C[C@]12C | – | Sprague Dawley rat, male, plasma | oral, 45 mg/kg, pure ginsenoside mixture in water | 2500 ± 900 ng·h/mL |
